Experimental data pooled from the literature.
Numbers after ± are the reported error.
Proteasome component C5/PSMB5 chymotrypsin-like site: Proteasome component C5/PSMB5, chymotrypsin-like site (Homo sapiens, UniProt P20618+P28074)
Chain of UniProt P28074 (whole entry, looked up): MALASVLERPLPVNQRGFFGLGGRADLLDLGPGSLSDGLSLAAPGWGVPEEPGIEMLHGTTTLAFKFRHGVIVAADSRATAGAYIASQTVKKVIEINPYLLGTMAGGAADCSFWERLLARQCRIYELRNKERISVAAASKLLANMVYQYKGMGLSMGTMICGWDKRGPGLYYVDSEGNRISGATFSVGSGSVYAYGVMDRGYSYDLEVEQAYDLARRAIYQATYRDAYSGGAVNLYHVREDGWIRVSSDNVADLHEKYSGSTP
Chain of UniProt P20618 (whole entry, looked up): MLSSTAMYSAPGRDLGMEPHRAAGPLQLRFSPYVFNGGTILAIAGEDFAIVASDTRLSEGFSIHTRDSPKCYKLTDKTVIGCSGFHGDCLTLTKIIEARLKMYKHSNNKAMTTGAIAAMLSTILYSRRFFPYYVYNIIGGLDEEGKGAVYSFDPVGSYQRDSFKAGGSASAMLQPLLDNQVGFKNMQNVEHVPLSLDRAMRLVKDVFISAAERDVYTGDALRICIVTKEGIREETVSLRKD
ESR2: Estrogen receptor beta (ESR2, Homo sapiens, UniProt Q92731)
topA: DNA topoisomerase 1 (topA, Escherichia coli, UniProt P06612)
Chain of UniProt P06612 (whole entry, looked up): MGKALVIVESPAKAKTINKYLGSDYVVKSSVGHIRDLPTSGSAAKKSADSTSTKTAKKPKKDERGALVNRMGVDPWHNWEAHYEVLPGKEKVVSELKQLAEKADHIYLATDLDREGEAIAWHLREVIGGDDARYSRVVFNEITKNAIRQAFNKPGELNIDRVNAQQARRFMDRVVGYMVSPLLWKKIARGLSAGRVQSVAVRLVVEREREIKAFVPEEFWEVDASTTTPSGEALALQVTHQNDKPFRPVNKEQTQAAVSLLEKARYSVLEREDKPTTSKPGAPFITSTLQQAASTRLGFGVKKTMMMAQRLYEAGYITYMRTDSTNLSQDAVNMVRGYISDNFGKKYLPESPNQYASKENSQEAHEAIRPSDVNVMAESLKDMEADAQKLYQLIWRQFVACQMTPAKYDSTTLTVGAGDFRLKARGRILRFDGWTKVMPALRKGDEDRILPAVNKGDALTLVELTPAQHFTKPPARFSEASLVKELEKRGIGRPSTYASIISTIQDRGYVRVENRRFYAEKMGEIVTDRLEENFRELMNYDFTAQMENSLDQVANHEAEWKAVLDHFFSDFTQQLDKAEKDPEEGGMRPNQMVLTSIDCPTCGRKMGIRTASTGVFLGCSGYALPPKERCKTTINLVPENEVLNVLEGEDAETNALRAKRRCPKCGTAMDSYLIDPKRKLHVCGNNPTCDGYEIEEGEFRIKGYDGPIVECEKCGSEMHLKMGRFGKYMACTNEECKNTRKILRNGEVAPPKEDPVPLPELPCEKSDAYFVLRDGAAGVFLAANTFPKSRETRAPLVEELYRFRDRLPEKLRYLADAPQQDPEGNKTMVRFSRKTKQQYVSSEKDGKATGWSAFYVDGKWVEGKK
Genome polyprotein NS2B-NS3 protease: Genome polyprotein, NS2B-NS3 protease (ZIKV, UniProt A0A024B7W1)
Chain of UniProt A0A024B7W1 (whole entry, looked up): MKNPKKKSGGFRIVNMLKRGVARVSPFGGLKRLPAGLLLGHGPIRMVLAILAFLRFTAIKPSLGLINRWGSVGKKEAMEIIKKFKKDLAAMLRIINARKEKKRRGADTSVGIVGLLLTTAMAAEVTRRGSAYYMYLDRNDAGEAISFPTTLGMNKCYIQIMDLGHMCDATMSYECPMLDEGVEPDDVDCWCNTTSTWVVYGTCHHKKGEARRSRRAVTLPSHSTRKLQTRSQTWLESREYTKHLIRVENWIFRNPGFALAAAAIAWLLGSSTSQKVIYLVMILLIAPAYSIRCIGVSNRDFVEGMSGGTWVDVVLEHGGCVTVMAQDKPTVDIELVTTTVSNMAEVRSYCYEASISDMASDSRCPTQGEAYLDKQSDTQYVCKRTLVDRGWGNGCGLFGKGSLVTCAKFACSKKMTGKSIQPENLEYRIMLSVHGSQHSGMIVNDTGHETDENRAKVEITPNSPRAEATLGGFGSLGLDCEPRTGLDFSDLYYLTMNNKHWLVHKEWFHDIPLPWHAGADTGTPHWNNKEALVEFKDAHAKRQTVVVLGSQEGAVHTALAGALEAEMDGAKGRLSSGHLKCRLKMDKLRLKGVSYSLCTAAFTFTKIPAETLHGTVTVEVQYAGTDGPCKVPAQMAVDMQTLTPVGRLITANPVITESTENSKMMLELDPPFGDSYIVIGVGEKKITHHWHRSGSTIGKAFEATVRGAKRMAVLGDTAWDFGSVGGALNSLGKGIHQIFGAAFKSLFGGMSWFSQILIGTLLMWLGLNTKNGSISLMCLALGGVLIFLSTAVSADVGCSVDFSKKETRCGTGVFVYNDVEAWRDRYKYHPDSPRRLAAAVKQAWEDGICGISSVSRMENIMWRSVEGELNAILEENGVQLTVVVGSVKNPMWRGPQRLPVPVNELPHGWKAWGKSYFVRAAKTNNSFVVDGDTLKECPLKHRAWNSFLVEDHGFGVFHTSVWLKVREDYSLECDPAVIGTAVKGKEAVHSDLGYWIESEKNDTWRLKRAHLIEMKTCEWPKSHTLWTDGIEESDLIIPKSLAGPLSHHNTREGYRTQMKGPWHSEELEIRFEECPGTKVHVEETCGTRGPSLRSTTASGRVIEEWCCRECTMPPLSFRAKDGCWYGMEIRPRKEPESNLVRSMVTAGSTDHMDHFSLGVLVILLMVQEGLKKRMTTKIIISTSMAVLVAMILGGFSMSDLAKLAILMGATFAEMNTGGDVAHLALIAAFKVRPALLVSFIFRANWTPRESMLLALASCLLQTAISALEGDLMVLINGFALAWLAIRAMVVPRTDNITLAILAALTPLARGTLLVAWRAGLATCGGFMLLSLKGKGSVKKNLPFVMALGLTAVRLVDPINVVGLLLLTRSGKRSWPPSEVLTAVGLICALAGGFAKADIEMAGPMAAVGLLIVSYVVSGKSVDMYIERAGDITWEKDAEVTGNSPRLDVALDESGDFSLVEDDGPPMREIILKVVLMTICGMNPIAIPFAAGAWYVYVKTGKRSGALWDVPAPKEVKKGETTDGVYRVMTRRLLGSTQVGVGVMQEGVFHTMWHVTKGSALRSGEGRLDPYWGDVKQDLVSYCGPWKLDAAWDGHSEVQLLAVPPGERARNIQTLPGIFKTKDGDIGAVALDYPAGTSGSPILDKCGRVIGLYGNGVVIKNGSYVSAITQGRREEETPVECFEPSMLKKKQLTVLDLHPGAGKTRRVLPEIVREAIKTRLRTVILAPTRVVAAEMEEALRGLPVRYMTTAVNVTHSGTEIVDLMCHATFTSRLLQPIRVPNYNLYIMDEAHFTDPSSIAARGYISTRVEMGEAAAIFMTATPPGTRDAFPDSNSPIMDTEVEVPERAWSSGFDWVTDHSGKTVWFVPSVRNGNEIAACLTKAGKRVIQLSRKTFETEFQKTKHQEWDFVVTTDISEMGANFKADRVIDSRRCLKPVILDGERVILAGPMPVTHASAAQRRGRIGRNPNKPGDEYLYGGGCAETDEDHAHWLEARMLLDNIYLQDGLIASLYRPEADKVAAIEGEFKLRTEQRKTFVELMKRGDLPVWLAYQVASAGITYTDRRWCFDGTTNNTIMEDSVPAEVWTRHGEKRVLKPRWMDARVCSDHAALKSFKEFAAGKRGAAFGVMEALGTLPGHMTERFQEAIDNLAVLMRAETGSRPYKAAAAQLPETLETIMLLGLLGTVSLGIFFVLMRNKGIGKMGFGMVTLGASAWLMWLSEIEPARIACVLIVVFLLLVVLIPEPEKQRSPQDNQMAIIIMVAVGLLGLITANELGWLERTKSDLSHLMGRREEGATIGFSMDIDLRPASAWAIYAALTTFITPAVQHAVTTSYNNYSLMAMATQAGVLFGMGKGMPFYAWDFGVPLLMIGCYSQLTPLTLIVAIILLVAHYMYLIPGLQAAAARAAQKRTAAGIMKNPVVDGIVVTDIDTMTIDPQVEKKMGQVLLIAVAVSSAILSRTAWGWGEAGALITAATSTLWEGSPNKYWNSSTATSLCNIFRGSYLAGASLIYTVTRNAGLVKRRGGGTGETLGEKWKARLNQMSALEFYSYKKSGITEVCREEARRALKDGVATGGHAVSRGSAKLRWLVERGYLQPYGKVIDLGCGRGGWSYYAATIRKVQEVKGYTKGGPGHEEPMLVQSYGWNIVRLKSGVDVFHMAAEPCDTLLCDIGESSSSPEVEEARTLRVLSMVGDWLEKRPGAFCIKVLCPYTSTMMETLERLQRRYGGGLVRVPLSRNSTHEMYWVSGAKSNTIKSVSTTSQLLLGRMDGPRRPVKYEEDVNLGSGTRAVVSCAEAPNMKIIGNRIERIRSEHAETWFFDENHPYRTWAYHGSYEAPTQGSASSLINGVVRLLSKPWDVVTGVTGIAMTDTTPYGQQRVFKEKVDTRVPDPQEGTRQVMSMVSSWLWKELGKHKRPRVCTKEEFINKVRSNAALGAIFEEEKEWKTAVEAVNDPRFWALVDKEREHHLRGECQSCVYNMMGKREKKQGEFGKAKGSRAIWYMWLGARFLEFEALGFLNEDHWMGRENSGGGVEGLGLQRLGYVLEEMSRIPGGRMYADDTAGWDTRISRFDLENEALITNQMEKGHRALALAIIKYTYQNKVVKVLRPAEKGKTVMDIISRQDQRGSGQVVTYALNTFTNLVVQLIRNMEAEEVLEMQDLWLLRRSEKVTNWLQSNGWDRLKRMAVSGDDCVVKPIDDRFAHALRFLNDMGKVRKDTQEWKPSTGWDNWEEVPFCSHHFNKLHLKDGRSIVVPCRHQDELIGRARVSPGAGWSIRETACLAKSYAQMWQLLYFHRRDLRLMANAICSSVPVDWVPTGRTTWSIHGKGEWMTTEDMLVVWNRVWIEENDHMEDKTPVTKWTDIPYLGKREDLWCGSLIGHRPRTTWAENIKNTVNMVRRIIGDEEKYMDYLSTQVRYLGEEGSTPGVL
Dual specificity protein phosphatase 5: Dual specificity protein phosphatase 5 (Homo sapiens, UniProt Q16690)
ALPL: Alkaline phosphatase, tissue-nonspecific isozyme (ALPL, Homo sapiens, UniProt P05186)
Chain of UniProt P17988 (whole entry, looked up): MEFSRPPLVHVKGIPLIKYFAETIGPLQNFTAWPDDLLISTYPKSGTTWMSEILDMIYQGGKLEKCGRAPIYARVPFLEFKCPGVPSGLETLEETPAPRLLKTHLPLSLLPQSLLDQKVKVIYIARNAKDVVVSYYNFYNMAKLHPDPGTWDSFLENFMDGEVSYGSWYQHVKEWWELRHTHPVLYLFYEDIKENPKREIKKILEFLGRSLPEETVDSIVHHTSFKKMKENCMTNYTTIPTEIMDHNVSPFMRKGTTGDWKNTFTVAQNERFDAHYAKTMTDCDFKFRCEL

O=C1c2ccccc2SC(c2ccc([N+](=O)[O-])cc2)N1CCCN1CCCCC1 (stereo not drawn) gave an IC50 of 8.48 µM (Ache (Rattus norvegicus, UniProt P37136); inhibitor, Ellman method; rat cerebral cortex homogenate; with: acetylthiocholine).
With CC(C)C[C@H](NC(=O)OCc1ccccc1)C(=O)N[C@@H](CC(C)C)C(=O)N[C@@H](CC(C)C)C(=O)C(=O)Nc1ccccc1 the IC50 was 0.0345 µM (Proteasome component C5/PSMB5 chymotrypsin-like site; enzyme activity in cells, inhibitor).
Cc1cc(-c2c[se]cc2-c2ccc(O)c(C)c2)ccc1O has an IC50 of 0.341 µM (ESR2; antagonist; HEK293T; with: estradiol 10 nM).
CNC(=O)OCC[N+](C)(C)C has an IC50 of 0.0507 ± 0.0083 µM (Neuronal acetylcholine receptor subunit alpha-4/beta-2 (Mus musculus, UniProt O70174+Q9ERK7); receptor desensitisation; mouse thalamic synaptosomes; 10 min).
With O=C(Nc1cccc([N+](=O)[O-])c1)c1ccc([N+](=O)[O-])cc1Cl the IC50 was greater than 250 µM (topA; enzyme activity, inhibitor).
CC(=O)c1cccc(NC(=O)C(=O)[C@H](CC(C)C)NC(=O)[C@H](Cc2ccccc2)NC(=O)[C@H](CC(C)C)NC(=O)OCc2ccccc2)c1 has an IC50 of 0.061 µM (Proteasome component C5/PSMB5 chymotrypsin-like site; enzyme activity in cells, inhibitor).
CC(C)[C@H](NC(=O)N[C@H](C(=O)N[C@H]1/C=C/CCNC(=O)/C=C/[C@H](C(C)C)NC1=O)C(C)C)C(=O)O has an IC50 of 1.3 µM (PSMB5 (Homo sapiens, UniProt P28074); active site labelling, inhibitor, probe competition gel; HEK-293T cell lysate; 1 h, 37 °C, with: activity-based probe 0.5 µM).
Oc1ccc(-c2cc(-c3ccc(O)cc3)c(-c3ccc(O)cc3)[se]2)cc1 has an IC50 of 0.111 µM (ESR2; antagonist; HEK293T; with: estradiol 10 nM).
For NCc1ccc(-c2ncc(NCC3CCNCC3)nc2C(=O)Nc2ccc(Cl)cc2)cc1, the IC50 was 17 µM (Genome polyprotein NS2B-NS3 protease; inhibitor; Zika virus).
For CN1CCN(CCOc2ccc(Cl)cc2C(=O)Nc2ccc([N+](=O)[O-])cc2Cl)CC1, the IC50 was 13.2 µM (Genome polyprotein, NS2B-NS3 interaction (dengue virus type 2, UniProt P29990); NS2B-NS3 interaction, inhibitor, split luciferase complementation; dengue virus 2).
With Cc1nc2ccc3cc(CNc4ccc5c(c4)CN(C(CCC(=O)O)C(=O)O)C5=O)ccc3c2c(=O)[nH]1 (stereo not drawn) the IC50 was 150 µM (SHMT (Plasmodium falciparum, UniProt Q8I566); enzyme activity, radiometric; 20 min, 37 °C, with: serine 0.2 mM, THF 1 mM).
The IC50 of C=C1C[C@H](C)C[C@@H]2CC=C[C@@H](C/C=C\C(=O)O[C@H]([C@@H](O)/C=C/[C@@H]3CC(C)=CCO3)C[C@@H]3O[C@H]3[C@@H](O)C1)O2 is reported as roughly 1 µM (Tubulin beta chain, microtubules (Bos taurus, UniProt Q6B856); binding; bovine microtubules; with: [3H]peloruside A).
O=C(CCNNC(=O)c1ccncc1)NCc1ccccc1 gave an IC50 of 74.8 µM (Beta-glucuronidase (GUSB, Bos taurus, UniProt A3KMY8); enzyme activity, inhibitor).
COc1cc([N+](=O)[O-])ccc1-c1nc2cc3nc4ccccc4nc3cc2[nH]1 has an IC50 of 79 µM (Genome polyprotein, protease (dengue virus type 2, UniProt P29990); enzyme activity, inhibitor, fluorescence; pH 8.5).
CC(C)=CCC/C(C)=C/CC/C(C)=C/CC[C@]1(C)CCc2c(C)c(O)c(C)c(C)c2O1 has an IC50 of greater than 10 µM (ALOX5 (Homo sapiens, UniProt P09917); enzyme activity, inhibitor, absorbance).
CSCC[C@H](NC(=O)[C@H](CO)NC(=O)[C@H](CO)NC(=O)[C@H](CC(C)C)NC(=O)[C@H](Cc1c[nH]cn1)NC(=O)[C@H](CCCCN)NC(=O)[C@@H](Cc1c[nH]c2ccccc12)NC(=O)[C@H](CC(C)C)NC(=O)[C@H](CC(N)=O)NC(=O)[C@H](Cc1c[nH]cn1)NC(=O)[C@H](CCSC)NC(=O)[C@@H](N)Cc1ccccc1)C(=O)N[C@@H](CCC(=O)O)C(=O)N[C@@H](CCCNC(=N)N)C(=O)N[C@H](C(=O)N[C@@H](CCC(=O)O)C(=O)N[C@@H](Cc1c[nH]c2ccccc12)C(=O)N[C@@H](CC(C)C)C(=O)N[C@@H](CCCNC(=N)N)C(=O)N[C@@H](CCCCN)C(=O)N[C@@H](CCCCN)C(=O)N[C@@H](CC(C)C)C(=O)N[C@@H](CCC(N)=O)C(=O)N[C@@H](CC(=O)O)C(=O)N[C@H](C(=O)N[C@@H](Cc1c[nH]cn1)C(=O)N[C@@H](CC(N)=O)C(=O)N[C@@H](Cc1ccccc1)C(N)=O)C(C)C)C(C)C gave an IC50 of 0.0102 ± 0.0019 µM (PTH1R (Homo sapiens, UniProt Q03431); cAMP generation, antagonist, GloSensor luciferase; SGS-72; with: LA-PTH 0.3 nM).
NC(=O)c1c(N)sc2c1CCCCC2 gave an IC50 of 20 µM (Gag-Pol polyprotein, reverse transcriptase p66/p51 (gag-pol, Human immunodeficiency virus 1, UniProt P03366, Y1100F); inhibitor; HIV-1).
For O=C(O)c1ccc(OCc2ccccc2)cc1, the IC50 was greater than 250 µM (topA; enzyme activity, inhibitor).
The IC50 of C/C=C1\NC(=O)[C@@H](NC(=O)[C@@H](NC(=O)[C@H](C)NC(=O)C/C(C)=C/Cl)C(C)C)[C@@H](C)OC(=O)[C@H](C(C)C)NC(=O)[C@H](Cc2ccc(O)cc2)N(C)C(=O)[C@H](Cc2ccccc2)N2C(=O)[C@H](CC[C@H]2O)NC1=O is reported as 0.577 µM (Chymotrypsinogen B (Homo sapiens, UniProt P17538); enzyme activity, inhibitor, fluorescence; pH 7.4).
O=C1Nc2ccc3ncsc3c2/C1=C/Nc1ccc(S(=O)(=O)Nc2ccccn2)cc1 has an IC50 of 0.63 µM (Glycogen synthase kinase 3, short isoform (Leishmania infantum, UniProt A4HXQ3); enzyme activity, inhibitor; 90 min, 30 °C, with: ATP 2 µM).
With O=C(O)c1cccc(C(=O)O)n1 the IC50 was 0.84 µM (blaNDM-1 (Klebsiella pneumoniae, UniProt C7C422); enzyme activity, inhibitor, absorbance).
The IC50 of NCc1ccc(-c2ncc(NCC3CCNCC3)nc2C(=O)Nc2ccc(I)cc2)cc1 is reported as 12.6 µM (Genome polyprotein NS2B-NS3 protease; inhibitor; Zika virus).
For NC[C@@H]1O[C@H](O[C@H]2[C@@H](O)[C@H](O[C@@H]3[C@@H](O)[C@H](N)C[C@H](N)[C@H]3O[C@H]3O[C@H](CN)[C@@H](O)[C@H](O)[C@H]3N)O[C@@H]2Cn2cc(COCc3cn(C[C@H]4O[C@@H](O[C@@H]5[C@@H](O)[C@H](N)C[C@H](N)[C@H]5O[C@H]5O[C@H](CN)[C@@H](O)[C@H](O)[C@H]5N)[C@H](O)[C@@H]4O[C@H]4O[C@@H](CN)[C@@H](O)[C@H](O)[C@H]4N)nn3)nn2)[C@H](N)[C@@H](O)[C@@H]1O, the IC50 was 0.077 ± 0.027 µM (HIV-1 TAR RNA; Tat peptide binding, FRET competition; pH 7.4, 25 °C).
O=C1OC2(c3cc(Br)c(O)cc3Oc3cc(O)c(Br)cc32)c2ccccc21 gave an IC50 of 90.9 ± 4.5 µM (Dual specificity protein phosphatase 5; phosphatase activity; 30 min, without DTT, with: pNPP).
With O=C1C2CC=CCC2C(=O)N1c1n[nH]c(Cc2ccccc2)n1 (stereo not drawn) the IC50 was greater than 100 µM (ALPL; enzyme activity, inhibitor, absorbance).
For CC(C)C[C@H](NC(=O)[C@H](C)NC(=O)[C@H](CC(N)=O)NC(=O)[C@H](CCC(=O)O)NC(=O)[C@@H](N)CCCCN)C(=O)N[C@@H](CC(C)C)C(=O)N[C@@H](CCCNC(=N)N)C(=O)N[C@@]1(C)CCCC=CCCC[C@@](C)(C(=O)N[C@@H](CC(=O)O)C(=O)NCC(=O)NCC(=O)NCC(=O)N[C@@H](CCCNC(=N)N)C(=O)N[C@@H](CCCNC(=N)N)C(=O)N[C@@H](CCCNC(=N)N)C(=O)N[C@@H](CCCNC(=N)N)C(=O)N[C@@H](CCCNC(=N)N)C(=O)N[C@@H](CCCNC(=N)N)C(=O)N[C@@H](CCCNC(=N)N)C(=O)N[C@@H](CCCNC(=N)N)C(=O)N[C@@H](CCCNC(=N)N)C(N)=O)NC(=O)[C@H](CC(=O)O)NC(=O)[C@H](CC(C)C)NC(=O)[C@H](CC(C)C)NC1=O, the IC50 was 0.77 ± 0.35 µM (Vitamin D3 receptor (VDR, Homo sapiens, UniProt P11473); reporter gene, antagonist, dual-luciferase; MCF7; 16 h, with: calcitriol 30 nM).
The IC50 of Cc1ccc(/C=C2\SC(=S)N(c3cccc(Cl)c3)C2=O)cc1[N+](=O)[O-] is reported as greater than 1000 µM (srtA (Staphylococcus aureus, UniProt Q2FV99); enzyme activity, inhibitor).
With Nc1ccc2c(c1)Oc1c(N3CC[C@@H](N)C3)c(F)cc3c(=O)c(C(=O)O)cn-2c13 the IC50 was 0.48 to 0.97 µM (topA; enzyme activity, inhibitor).
CCN1C(=Cc2ccc3ccccc3[n+]2CC)C=Cc2ccccc21 gave an IC50 of 101 µM (Sodium-dependent noradrenaline transporter (Mus musculus, UniProt O55192); binding; mouse hippocampal homogenate; 120 min, with: [3H]nisoxetine 5 nM).
With O=C(O)c1cc(-c2ccccc2Cl)n[nH]1 the IC50 was greater than 100 µM (ALPL; enzyme activity, inhibitor, absorbance).
With CC(C)C[C@@H]1NC(=O)[C@H]([C@@H](C)O)NC(=O)[C@H](CCCCN)NC(=O)[C@@H]2CCCN2C(=O)[C@H](Cc2c[nH]c3ccccc23)NC(=O)[C@@H](NC(=O)[C@H](CCCCN)NC(=O)[C@H](Cc2ccc(O)cc2)NC(=O)[C@@H](N)Cc2c[nH]cn2)CSSC[C@@H](C(=O)N[C@@H](Cc2c[nH]c3ccccc23)C(=O)N[C@@H](CC(N)=O)C(=O)N[C@@H](Cc2c[nH]cn2)C(=O)O)NC(=O)[C@H](CCCCN)NC(=O)[C@H](Cc2ccccc2)NC1=O the IC50 was greater than 100 µM (ACVR2B (Homo sapiens, UniProt Q13705); reporter gene, antagonist, measured: Smad2/3; HEK293T; 4 h, with: activin A 0.33 ng/mL).
CC[C@H](C)[C@H](NC(=O)CNC(=O)[C@@H](NC(=O)[C@H](CCCCN)NC(=O)[C@H](CCCCN)NC(=O)[C@H](Cc1ccccc1)NC(=O)[C@H](CC(C)C)NC(=O)[C@H](CCCCN)NC(=O)[C@H](Cc1c[nH]c2ccccc12)NC(=O)[C@@H](N)CCCCN)[C@@H](C)CC)C(=O)NCC(=O)N[C@@H](C)C(=O)N[C@H](C(=O)N[C@@H](CC(C)C)C(=O)N[C@@H](CCCCN)C(=O)N[C@H](C(=O)N[C@@H](CC(C)C)C(=O)N[C@H](C(=O)N[C@H](C(=O)NCC(=O)N[C@@H](CC(C)C)C(=O)N1CCC[C@H]1C(=O)N[C@@H](C)C(=O)N[C@@H](CC(C)C)C(=O)N[C@H](C(=O)N[C@@H](CO)C(N)=O)[C@@H](C)CC)[C@@H](C)O)[C@@H](C)O)C(C)C)C(C)C has an IC50 of 21.9 µM (Toll-like receptor 4/MD-2 (TLR4/LY96, Homo sapiens, UniProt O00206+Q9Y6Y9); reporter gene, antagonist; HEK-Blue hTLR4; with: LPS).
The IC50 of O=C1OC2(c3cc(Cl)c(O)cc3Oc3cc(O)c(Cl)cc32)c2ccccc21 is reported as 200 ± 3.1 µM (Dual specificity protein phosphatase 5; phosphatase activity; 60 min, 1 mM DTT, with: pNPP).
With Oc1ccc(-c2cc(Cl)cc(Cl)c2)cc1Cl the IC50 was 40 µM (Sult1a1 (Rattus norvegicus, UniProt P17988); enzyme activity, inhibitor).
C[C@@H]1C[C@H]2[C@@H]3CCC4=CC(=O)C=C[C@]4(C)[C@@]3(Cl)[C@@H](O)C[C@]2(C)[C@@]1(OC(=O)c1ccco1)C(=O)CCl has an IC50 of 5.4 µM (ABCC1 (Homo sapiens, UniProt P33527); transporter efflux, inhibitor).
Cc1c(P(=S)(c2ccccc2)c2ccccc2)n2ccccc2[n+]1CCc1ccccc1 gave an IC50 of 0.063 µM (NPSR1 (Homo sapiens, UniProt Q6W5P4); ERK phosphorylation, antagonist, HTRF; CHO (NPSR1 transfected)).
